Results gathered from unrelated publications.
Parts stem from different laboratories: compare values within a part only.

Block 1
Target: Sal-like protein 4, full length isoform A (SALL4, Homo sapiens, UniProt Q9UJQ4, residues 1-1053)
Chain of UniProt Q9UJQ4 (whole entry, looked up): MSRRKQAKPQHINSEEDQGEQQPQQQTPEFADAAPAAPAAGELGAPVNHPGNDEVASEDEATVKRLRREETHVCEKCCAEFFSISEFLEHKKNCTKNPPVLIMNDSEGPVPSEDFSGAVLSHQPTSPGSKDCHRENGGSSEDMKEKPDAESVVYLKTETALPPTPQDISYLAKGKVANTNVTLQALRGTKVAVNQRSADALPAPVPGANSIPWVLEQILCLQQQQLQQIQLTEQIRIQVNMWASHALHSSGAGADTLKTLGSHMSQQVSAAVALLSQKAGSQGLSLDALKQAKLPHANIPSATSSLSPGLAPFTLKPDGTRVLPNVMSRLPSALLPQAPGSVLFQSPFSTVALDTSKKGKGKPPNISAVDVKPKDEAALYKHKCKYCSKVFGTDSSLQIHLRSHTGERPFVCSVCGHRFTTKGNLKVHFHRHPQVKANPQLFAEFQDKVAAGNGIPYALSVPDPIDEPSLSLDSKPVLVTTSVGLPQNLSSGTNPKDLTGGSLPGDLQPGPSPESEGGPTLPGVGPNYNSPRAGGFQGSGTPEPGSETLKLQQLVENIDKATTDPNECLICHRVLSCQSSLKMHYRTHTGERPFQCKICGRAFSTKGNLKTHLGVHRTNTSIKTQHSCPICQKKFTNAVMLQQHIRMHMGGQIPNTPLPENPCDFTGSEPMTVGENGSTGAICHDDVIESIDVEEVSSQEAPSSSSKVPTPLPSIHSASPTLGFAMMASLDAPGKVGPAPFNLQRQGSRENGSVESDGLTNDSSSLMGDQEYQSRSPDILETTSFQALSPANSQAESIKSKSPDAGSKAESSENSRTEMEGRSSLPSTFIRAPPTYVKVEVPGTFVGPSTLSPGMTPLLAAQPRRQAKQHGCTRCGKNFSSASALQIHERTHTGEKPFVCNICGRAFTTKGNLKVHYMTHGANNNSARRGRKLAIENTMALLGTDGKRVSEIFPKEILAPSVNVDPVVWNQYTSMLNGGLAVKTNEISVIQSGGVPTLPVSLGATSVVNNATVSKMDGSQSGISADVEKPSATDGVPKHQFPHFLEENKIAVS
Method: universal PBM
Molecule type: double-stranded DNA, one strand shown
Sample: in vitro
Tested at: 600 nM
Notes: 8-mer, flanks averaged, mean of replicates
Direction: higher = stronger binding
Sequence	E-score
GACTTCTC	-0.0623
CTCCCCCA	-0.17
GTCCGTCA	0.0496
GGGTTCAA	-0.1

Block 2
Target: RNA binding protein fox-1 homolog 2, RRM domain, GST-SBP tag (RBFOX2, Homo sapiens, UniProt O43251-10, residues 100-194)
Method: RNA Bind-n-Seq
Molecule type: RNA
Sample: in vitro
Tested at: 365 nM
Notes: natural RNA segment, single round, ends assumed
Baseline: no-protein control
Direction: higher = stronger binding
All sequences stand within: GGGAGUUCUACAGUCCGACGAUC … UGGAAUUCUCGGGUGCCAA
Residues (chain): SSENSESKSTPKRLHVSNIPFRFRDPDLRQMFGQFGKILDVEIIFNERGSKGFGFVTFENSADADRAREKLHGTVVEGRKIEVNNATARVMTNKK
Sequence	RBNS enrichment (R)
AGACUUUGAAUCAUCGCUAUAUCAAGUAUCUAAAAUUUGGGAGGGUGAAUCAGUACACUGUGACCAAGGUCCUCAAAUUGGAAUUUGAACAACAAUGUAAAACCUGUUCU	0.298
UUGUCUUUUUUGAUCUAAUUUAUAUUUUAUAUUGUUGAAUUCUCCCUCCUUUGGCUUGUGGGAUCCUUUUUCUCUAAUAUCUGUCUUUCUUUUUUUAGUUGAUCUUUCCA	1
GAGUAAUGUUUGUGGCUAUUAAAAUGCAUUAUCAUUAUCCACUUCAAUAGCAUUUUCCUCUGCUUUGAAAUUUCCAGAAAUCAUCUUGGGCCAAGGCAAUGACACAUACA	0.413
CUUUCCUUGUAUCUUUUAAACUCAGUUCUGCAUCCAACUUGAGAAGAAAAAAAGCUUCUUUCCAUAUCAAGUACCAUAUGAGUUCAUUUAAACUGCACCUUGCAGAAAUG	1.76
UCAGGAAGUGACAGGCCCAUCAUAUCAAAUAACUUAUUCACUUUUCAUGUGGCAGGAAACUGGAAUAUCGCUUUUAAUAAAAUGGAAAAAUAUGCUUCUACAUAUUUACC	1.01
GUCUAACCCUUUCUGUGUGGCAGAAAAAUAUGUUUUCCAGGUAGUUUUUACUACUACAGAGAGUCUGUAAAUAAGUGCUUUAAAAAAAUAACAAACCAAUAAGAUAUUUG	0.58

Block 3
Target: Histone acetyltransferase KAT6A, winged helix 1, GST fusion (KAT6A, Homo sapiens, UniProt Q92794, residues 1-85)
Method: protein binding microarray
Molecule type: double-stranded DNA, one strand shown
Sample: in vitro
Tested at: not given
Notes: 8-mer, flanks averaged, mean of 2 arrays, mostly near background
Baseline: not given
Direction: higher = stronger binding
Target sequence (chain): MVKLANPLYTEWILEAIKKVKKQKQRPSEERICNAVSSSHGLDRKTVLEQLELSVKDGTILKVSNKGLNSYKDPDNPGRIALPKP
Sequence	E-score
GCTGGCCA	-0.0465
ACTGAGAC	-0.156
ATTCTTCA	-0.271
GCATTGTA	0.0795
CACACACA	-0.307

Mixed results
Molecule	target	test	system	setting	scale	measurement	value
PhoQ, residues 284 288 289 292 302 303 TLMATV	PhoP, residues 12 14 15 18 19 SGWQI (Escherichia coli, UniProt P23836)	Sort-seq, measured: YFP reporter	E. coli	PhoQ-PhoP variant library, added: 10 µM Mg2+	baseline: high Mg2+ state, higher = stronger signaling	fold induction	24.5

A few entries again (block 2):
Sequence	RBNS enrichment (R)
UUGUCUUUUUUGAUCUAAUUUAUAUUUUAUAUUGUUGAAUUCUCCCUCCUUUGGCUUGUGGGAUCCUUUUUCUCUAAUAUCUGUCUUUCUUUUUUUAGUUGAUCUUUCCA	1
